Measured values gathered from unrelated publications.
Parts stem from different laboratories: compare values within a part only.

Series 1
Target: Serine/threonine-protein kinase 4 (STK4, Homo sapiens, UniProt Q13043)
UniProt Q13043, sequence (whole entry, looked up): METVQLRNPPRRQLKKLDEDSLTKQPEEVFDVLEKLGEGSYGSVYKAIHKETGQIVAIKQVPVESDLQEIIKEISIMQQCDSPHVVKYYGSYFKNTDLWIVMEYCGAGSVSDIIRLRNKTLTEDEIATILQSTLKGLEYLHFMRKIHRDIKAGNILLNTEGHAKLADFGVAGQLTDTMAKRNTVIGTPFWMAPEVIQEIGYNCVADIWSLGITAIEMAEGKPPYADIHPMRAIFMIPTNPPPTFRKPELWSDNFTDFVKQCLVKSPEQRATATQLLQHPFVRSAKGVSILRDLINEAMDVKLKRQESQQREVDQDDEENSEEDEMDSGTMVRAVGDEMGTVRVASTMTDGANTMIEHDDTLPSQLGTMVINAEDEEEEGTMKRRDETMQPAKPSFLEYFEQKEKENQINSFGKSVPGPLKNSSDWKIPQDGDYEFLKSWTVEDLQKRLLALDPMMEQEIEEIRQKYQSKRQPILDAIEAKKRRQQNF
Effect on: enzyme activity
Action: inhibitor
Concentration: 0.5 µM
Baseline: control
Endpoint: remaining activity
CN([C@@H](Cc1ccc(OS(=O)(=O)c2cccc3cnccc23)cc1)C(=O)N1CCN(c2ccccc2)CC1)S(=O)(=O)c1cccc2cnccc12: 96.8%
Cc1cn(-c2cc(NC(=O)c3ccc(C)c(Nc4nccc(-c5cccnc5)n4)c3)cc(C(F)(F)F)c2)cn1: 100%
CCOc1nc(NC(=O)Cc2cc(OC)ccc2OC)cc(N)c1C#N: 95.4%
CCN(CC)CCNC(=O)c1c(C)[nH]c(/C=C2\C(=O)Nc3ccc(Cl)cc32)c1C: 2.98%
CN(C)C[C@H]1CCn2c(c(C3=C(c4cn(C)c5ccccc45)C(=O)NC3=O)c3ccccc32)C1: 80.1%
Ic1cccc(CSc2nnc(-c3ccncc3)o2)c1: 102%
O=C(NC(NC(=S)Nc1ccc(F)c([N+](=O)[O-])c1)C(Cl)(Cl)Cl)C(c1ccccc1)c1ccccc1 (stereo not drawn): 96.2%
COc1cc2ncnc(Nc3ccc(O)c(Br)c3)c2cc1OC: 90%
c1ccc(-c2cnc(Nc3ccc(OCCN4CCCC4)cc3)s2)cc1: 102%

Series 2
Cell line: Huh-7
Concentration: 10 µM
Time: 24 h
Endpoint: viability
CC(C)/N=c1\cc2n(-c3ccc(Cl)cc3)c3ccccc3nc-2cc1Nc1ccc(Cl)cc1: 88.5%
CC(C)(C)NCC(O)COc1cccc2c1C[C@H](O)[C@H](O)C2 (mixture of isomers): 97.5%
CC1=NS(=O)(=O)c2cc(Cl)ccc2N1: 98.6%

Series 3
Target: TAR DNA-binding protein 43, full length, His tag (TARDBP, Homo sapiens, UniProt Q13148, residues 1-414)
Technique: RNA Bind-n-Seq
Molecule type: RNA
Medium: in vitro
Concentration: 20 nM
Setting: 6-mer, flanks averaged, single round
Together with: 150 mM LiCl
Baseline: input library
Reading: higher = stronger binding
Endpoint: 6-mer enrichment (R)
CGUAGU: 0.936
GGGCCG: 1.15
GGGGGA: 1.45
CGUAGC: 0.887
GUAGUC: 0.935
GUUACC: 0.942
UGUAGU: 1.23
GUACCC: 0.99

Other studies, line by line
CC(C)n1cnc(-c2ccc(F)cc2)c1-c1ncc(C(=O)Nc2ccc(N3CCN(C)CC3)cc2)[nH]1
patients with cardiac disorders (phase 2a trial; idiopathic pulmonary fibrosis patients; dose not given, adverse event grade 2, all dose arms pooled): 0%

A few entries again (series 1):
CCN(CC)CCNC(=O)c1c(C)[nH]c(/C=C2\C(=O)Nc3ccc(Cl)cc32)c1C: 2.98%
Ic1cccc(CSc2nnc(-c3ccncc3)o2)c1: 102%
